Measured values gathered from unrelated publications.
Each numbered part is a random draw from the data of one study; scales do not carry over between parts.

Set 1
Target: Replicase polyprotein 1ab, nsp13 helicase (rep, Severe acute respiratory syndrome coronavirus 2, UniProt P0DTD1)
Mode: inhibitor
Tested at: 20 µM
With N[C@@H](COP(=O)(O)O)C(=O)O the inhibition was 5.39%.
The inhibition of CC(C)(C)C(=O)CN1C(=O)[C@H](NC(=O)Nc2cccc(C(=O)O)c2)CN(C2CCCCC2)c2ccccc21 is reported as 10.2%.
Cc1ncc(OC[C@@]2(c3cccc(F)c3)C[C@H]2C(=O)Nc2ccc(F)cn2)c(C)n1 gave an inhibition of 9.14%.
CC(C)(C)c1ccc(C(=O)Nc2cn3cc(-n4ccnc4)ccc3n2)cc1 gave an inhibition of 5.87%.
For Cc1[nH]c(=O)c(C#N)cc1-c1ccncc1, the inhibition was 6.74%.
With N[C@@]1(C(=O)O)CC[C@@H](C(=O)O)C1 the inhibition was 3.25%.
For O=C(O)CN1CCN(CC(=O)O)CCN(CC(=O)O)CCN(CC(=O)O)CC1, the inhibition was 0.7%.
N#CCCCSC(=N)N has an inhibition of -1.96%.
For Cc1c(-c2ccc(-c3ccccc3F)cc2)nc2ccc(F)cc2c1C(=O)O, the inhibition was 1.77%.
For N[C@H](C(=O)O)[C@H](O)c1ccc(O)c(O)c1, the inhibition was 6.96%.
With CC(C)(O)C(=O)Nc1ccc([N+](=O)[O-])c(C(F)(F)F)c1 the inhibition was 4.56%.
The inhibition of O=c1cc[nH]c(=O)[nH]1 is reported as 3.7%.
NCCCCCC(O)(P(=O)(O)O)P(=O)(O)O has an inhibition of 2.65%.
The inhibition of CCn1nc(C2CCN(C(=O)CCO)CC2)nc1-c1cnc(N)c(-c2nnc(C(C)(C)C)o2)n1 is reported as 0.95%.
For COC(=O)/C=C/C(=O)OCCN1C(=O)CCC1=O, the inhibition was 4.09%.
CON(C)C(=O)N1N=C(c2cc(F)ccc2F)S[C@@]1(CCCN)c1ccccc1 gave an inhibition of 9.36%.
For CC(C)(Oc1ccc(Cl)cc1)C(=O)O, the inhibition was 6.03%.
With O=c1cc(-c2ccccc2)oc2cc(O)c(O)c(O)c12 the inhibition was 70%.
CCCCC1C(=O)N(c2ccccc2)N(c2ccc(O)cc2)C1=O (stereo not drawn) has an inhibition of 19.7%.
Cc1ccc(-n2nc(C(C)(C)C)cc2NC(=O)NCc2cc(F)ccc2Oc2ccc3c(cnn3CCO)c2)cc1 gave an inhibition of 11.4%.
With CC(=O)N[C@@H](CSSC[C@H](NC(C)=O)C(=O)O)C(=O)O the inhibition was 1.9%.
Cc1[nH]c(=O)c(C#N)cc1-c1ccc2nccn2c1 has an inhibition of -3.22%.
For CCCCCCCCCCCC(=O)OCC(O)CO (stereo not drawn), the inhibition was 0.61%.
For C[C@H](Nc1cc(NS(=O)(=O)N2CCC2)nc(SCc2cccc(F)c2F)n1)[C@@H](O)CO, the inhibition was 2.01%.
O=C(OC(C(F)(F)F)C(F)(F)F)N1CCN(Cc2cccc(Oc3ccccc3)c2)CC1 gave an inhibition of 1.61%.

Set 2
Target: Sal-like protein 4, full length isoform A (SALL4, Homo sapiens, UniProt Q9UJQ4, residues 1-1053)
Sequence of UniProt Q9UJQ4 (whole entry, looked up): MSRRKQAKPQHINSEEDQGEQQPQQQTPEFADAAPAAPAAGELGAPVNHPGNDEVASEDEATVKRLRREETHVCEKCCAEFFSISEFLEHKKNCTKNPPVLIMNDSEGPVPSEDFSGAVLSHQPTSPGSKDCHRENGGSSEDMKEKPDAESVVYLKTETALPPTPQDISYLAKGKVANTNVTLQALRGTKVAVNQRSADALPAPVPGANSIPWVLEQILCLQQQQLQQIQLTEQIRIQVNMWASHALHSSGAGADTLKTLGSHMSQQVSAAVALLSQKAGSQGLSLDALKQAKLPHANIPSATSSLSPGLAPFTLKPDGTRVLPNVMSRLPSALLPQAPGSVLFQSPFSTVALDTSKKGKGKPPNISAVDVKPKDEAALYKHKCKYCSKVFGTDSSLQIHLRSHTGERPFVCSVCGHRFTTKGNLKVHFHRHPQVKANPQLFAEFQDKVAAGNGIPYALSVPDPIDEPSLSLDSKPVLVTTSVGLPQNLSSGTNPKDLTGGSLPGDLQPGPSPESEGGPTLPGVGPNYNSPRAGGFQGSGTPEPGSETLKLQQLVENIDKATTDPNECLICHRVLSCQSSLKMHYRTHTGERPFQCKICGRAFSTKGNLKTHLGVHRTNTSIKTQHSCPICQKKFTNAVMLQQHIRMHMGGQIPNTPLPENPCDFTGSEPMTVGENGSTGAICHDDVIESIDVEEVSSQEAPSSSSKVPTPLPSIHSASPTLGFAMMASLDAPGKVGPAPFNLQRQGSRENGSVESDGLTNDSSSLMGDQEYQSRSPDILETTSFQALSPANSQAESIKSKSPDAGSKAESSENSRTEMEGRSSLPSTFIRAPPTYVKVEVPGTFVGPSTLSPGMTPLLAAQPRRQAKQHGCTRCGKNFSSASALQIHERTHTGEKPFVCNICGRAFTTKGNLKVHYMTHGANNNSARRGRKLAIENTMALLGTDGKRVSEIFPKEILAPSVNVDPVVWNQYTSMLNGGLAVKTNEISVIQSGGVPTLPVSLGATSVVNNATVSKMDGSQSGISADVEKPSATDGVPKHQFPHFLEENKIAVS
Technique: universal PBM
Form: double-stranded DNA, one strand shown
Sample: in vitro
Tested at: 600 nM
Setting: 8-mer, flanks averaged, mean of replicates
Direction: higher = stronger binding
For `CGGATGGC`, the E-score was -0.192.
`CAGCGCAC` has an E-score of -0.261.
The E-score of `CTCCAAAC` is reported as -0.0364.
For `AAATTTTA`, the E-score was 0.313.
`TAGCGGCA` has an E-score of -0.226.
The E-score of `CGAAGATA` is reported as 0.148.
`CCCCGGTA` gave an E-score of -0.346.
For `CAACTATC`, the E-score was 0.0516.

Set 3
Target: Histone acetyltransferase KAT6A, both winged helices, GST fusion (KAT6A, Homo sapiens, UniProt Q92794, residues 1-181)
Technique: protein binding microarray
Form: double-stranded DNA, one strand shown
Sample: in vitro
Tested at: not given
Setting: 8-mer, flanks averaged, mean of 2 arrays, mostly near background
Reference: not given
Direction: higher = stronger binding
Construct (chain): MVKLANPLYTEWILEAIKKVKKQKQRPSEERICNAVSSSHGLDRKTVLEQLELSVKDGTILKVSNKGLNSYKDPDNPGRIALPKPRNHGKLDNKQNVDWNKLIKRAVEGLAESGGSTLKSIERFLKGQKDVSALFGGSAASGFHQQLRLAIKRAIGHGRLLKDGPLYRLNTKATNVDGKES
`CACTATTA` gave an E-score of -0.0647.
`GCTATGCA` gave an E-score of 0.032.
The E-score of `ATATTAGG` is reported as -0.194.
`AGTCCCTG` gave an E-score of -0.16.
`TGATCCCA` has an E-score of -0.169.
`ACTGGTAT` gave an E-score of -0.0982.
`AGATAAGG` has an E-score of -0.114.
`AAGGAGCC` has an E-score of -0.0972.

Set 4
Target: RNA binding protein fox-1 homolog 2, RRM domain, GST-SBP tag (RBFOX2, Homo sapiens, UniProt O43251-10, residues 100-194)
Technique: RNA Bind-n-Seq
Form: RNA
Sample: in vitro
Tested at: 365 nM
Setting: natural RNA segment, single round, ends assumed
Reference: no-protein control
Direction: higher = stronger binding
Shared flanks, not repeated: GGGAGUUCUACAGUCCGACGAUC … UGGAAUUCUCGGGUGCCAA
Residues (chain): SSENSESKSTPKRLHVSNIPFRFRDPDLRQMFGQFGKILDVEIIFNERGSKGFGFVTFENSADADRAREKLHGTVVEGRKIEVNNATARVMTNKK
`GAUCUUUCACCCAUUAGCAUUACUUACGUAGAUAAUUCUUUAUGCCUAGUUAUUAUACAUAUUAAUUUUUAAGGUAUACAUUUAAAUUACACAAUUGUUCAUUGUGGUUU`: “RBNS enrichment (R)” 1.03.
For `CUCCAAAGGAAGUCUAGGAGCUGGGAGGAAAAGAAAAGAGGGGAAAAUGAGUUUUUAUGGGGCUGAACGGGGAGAAAAGGUCAUCAUCGAUUCUACUUUAGAAUGAGAGU`, “RBNS enrichment (R)” read 2.92.
For `GGUAUCGCUGGGCAGUGGUGGCACACGCCUUUAAUCCCAGCAAUUGGGAGGCAGAGGCAGGUGGAUUUCUAAGUUUGAGGCCAACCUGGUCUACAGAGUGAGUUCCAGGA`, “RBNS enrichment (R)” read 0.251.
For `AGAGAGUGAGAUGCCAUGCUGACAAUAUUAAGAUCUAUUUGAAUAUUUAGAAAUGUCUUACUGUAUAUAUGUUUAUGUUUAUUUGGUCCUUAGAGAUUAAAAGCGGUCAU`, “RBNS enrichment (R)” read 0.531.
For `UUAGAGAUCUGAAAACUCAUUAGAGAUGUUGAGUCUUAUCAAAUAAAAAGCAUGAGACAUCAUGGCCGUAAUGUCUUUGGGUGAUUUUUCCCCCUCUCCCUGGAUGUAGA`, “RBNS enrichment (R)” read 0.485.
`UCAGAUAAUCCUUGUGUCUUGGGUCAGUUUGGCCCUGGCCCUAGAGUGAGGCAAGCCCUUCCUAUGAAGAUGAGCAAAAAUAUUAUUCCACUUCACUCUGAGUGCUUUCA`: “RBNS enrichment (R)” 0.279.
Under “RBNS enrichment (R)”, `GCAUGAUGCCUUUUUGGGGGCUGGGGAUUGAGUCUUGCUGCUCUGCCCAGCCCUGUUCUAUUCUGCAGGGUCCCUGUGUUGGAAUUCUCCCUGGGGAACCUACUUUCUGC` is recorded as 4.05.
`CAGCUUUAACUUGUAAGACAGCUAUGAGUCACUUUGAGAAUUCCAGAGGCCAUGUUGGGGGGACAGCCAUUGAGUUUAUUCCUUUACCUCAUGUGACCCCAGCAACUUUG`: “RBNS enrichment (R)” 0.667.

Further values, each from its own experiment
The GFP-positive cells of Cc1ccc(=O)n(-c2ccccc2)c1 is reported as 84.2% (HEK-293T; pseudovirus infection; VSV pseudotyped with SARS-CoV-2 spike; 10 µM, 16 h; reference: vehicle-treated).
CCn1cc(C(=O)O)c(=O)c2cc(F)c(N3CCNCC3)nc21 gave a viability of 96.3% (HEK-293T/ACE2; concentration not given, 16 (unit not given); reference: vehicle).

For quick reference, copied from above (set 1):
O=C(OC(C(F)(F)F)C(F)(F)F)N1CCN(Cc2cccc(Oc3ccccc3)c2)CC1 gave an inhibition of 1.61%.
CC(C)(C)c1ccc(C(=O)Nc2cn3cc(-n4ccnc4)ccc3n2)cc1 gave an inhibition of 5.87%.
The inhibition of CCn1nc(C2CCN(C(=O)CCO)CC2)nc1-c1cnc(N)c(-c2nnc(C(C)(C)C)o2)n1 is reported as 0.95%.
